{"data": "Published values from different studies", "prp N63Q": "Ribosomal processing cysteine protease Prp (prp, Staphylococcus aureus, UniProt Q2FXS9, N63Q)", "note": "Compare with care: the assays were run in different laboratories. Several values in a cell are separate wells, animals, samples, runs or records. ± gives the spread as reported.", "chain of UniProt Q09013 (whole entry, looked up)": "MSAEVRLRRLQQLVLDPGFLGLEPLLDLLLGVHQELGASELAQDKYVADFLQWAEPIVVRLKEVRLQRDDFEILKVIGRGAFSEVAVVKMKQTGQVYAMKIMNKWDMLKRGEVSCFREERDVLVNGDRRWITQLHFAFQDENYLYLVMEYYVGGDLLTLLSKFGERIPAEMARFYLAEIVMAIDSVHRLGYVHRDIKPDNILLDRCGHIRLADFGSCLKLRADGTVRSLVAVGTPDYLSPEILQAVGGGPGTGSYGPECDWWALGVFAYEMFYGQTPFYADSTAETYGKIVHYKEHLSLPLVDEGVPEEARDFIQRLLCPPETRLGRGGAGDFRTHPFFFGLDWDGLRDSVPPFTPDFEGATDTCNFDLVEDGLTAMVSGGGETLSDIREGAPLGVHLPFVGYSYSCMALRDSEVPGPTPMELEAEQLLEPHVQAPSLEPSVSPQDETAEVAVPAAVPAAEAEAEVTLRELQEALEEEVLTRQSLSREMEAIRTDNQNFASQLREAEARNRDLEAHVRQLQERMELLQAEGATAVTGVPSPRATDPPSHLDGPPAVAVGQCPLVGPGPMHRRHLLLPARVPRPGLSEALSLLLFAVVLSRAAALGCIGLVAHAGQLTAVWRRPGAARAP", "chain of UniProt Q99788 (whole entry, looked up)": "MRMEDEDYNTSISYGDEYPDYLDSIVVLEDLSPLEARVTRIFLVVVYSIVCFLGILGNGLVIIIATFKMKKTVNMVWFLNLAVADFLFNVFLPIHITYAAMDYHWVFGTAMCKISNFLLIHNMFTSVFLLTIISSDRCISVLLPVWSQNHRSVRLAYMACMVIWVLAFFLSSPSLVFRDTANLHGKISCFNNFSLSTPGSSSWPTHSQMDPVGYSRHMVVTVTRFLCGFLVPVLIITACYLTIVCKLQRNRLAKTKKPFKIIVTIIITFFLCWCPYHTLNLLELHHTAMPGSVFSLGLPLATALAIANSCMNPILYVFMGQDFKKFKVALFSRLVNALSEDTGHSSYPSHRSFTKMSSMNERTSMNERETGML", "chain of UniProt O15146 (whole entry, looked up)": "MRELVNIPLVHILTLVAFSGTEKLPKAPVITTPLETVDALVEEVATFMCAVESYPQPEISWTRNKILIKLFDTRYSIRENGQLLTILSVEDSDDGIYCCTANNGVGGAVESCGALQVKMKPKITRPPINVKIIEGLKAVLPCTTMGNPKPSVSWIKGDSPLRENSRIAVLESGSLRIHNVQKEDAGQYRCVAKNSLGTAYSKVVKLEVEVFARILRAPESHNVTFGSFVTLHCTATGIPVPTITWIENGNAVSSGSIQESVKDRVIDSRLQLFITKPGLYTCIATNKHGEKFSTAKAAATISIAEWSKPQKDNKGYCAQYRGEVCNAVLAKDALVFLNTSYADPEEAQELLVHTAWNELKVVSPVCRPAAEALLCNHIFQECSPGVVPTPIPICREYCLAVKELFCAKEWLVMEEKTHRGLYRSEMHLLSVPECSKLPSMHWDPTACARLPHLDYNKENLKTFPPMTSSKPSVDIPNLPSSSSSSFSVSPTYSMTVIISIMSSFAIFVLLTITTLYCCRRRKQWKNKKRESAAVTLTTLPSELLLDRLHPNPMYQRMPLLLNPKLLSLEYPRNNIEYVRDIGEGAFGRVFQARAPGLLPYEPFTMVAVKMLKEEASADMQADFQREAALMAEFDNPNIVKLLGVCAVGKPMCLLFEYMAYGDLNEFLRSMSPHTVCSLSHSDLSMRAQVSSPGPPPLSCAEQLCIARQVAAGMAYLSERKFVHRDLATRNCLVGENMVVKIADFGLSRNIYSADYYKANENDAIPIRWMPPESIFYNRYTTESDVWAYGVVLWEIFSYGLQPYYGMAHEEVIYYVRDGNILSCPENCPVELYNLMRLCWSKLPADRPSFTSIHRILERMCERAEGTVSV", "chain of UniProt Q96PY6 (whole entry, looked up)": "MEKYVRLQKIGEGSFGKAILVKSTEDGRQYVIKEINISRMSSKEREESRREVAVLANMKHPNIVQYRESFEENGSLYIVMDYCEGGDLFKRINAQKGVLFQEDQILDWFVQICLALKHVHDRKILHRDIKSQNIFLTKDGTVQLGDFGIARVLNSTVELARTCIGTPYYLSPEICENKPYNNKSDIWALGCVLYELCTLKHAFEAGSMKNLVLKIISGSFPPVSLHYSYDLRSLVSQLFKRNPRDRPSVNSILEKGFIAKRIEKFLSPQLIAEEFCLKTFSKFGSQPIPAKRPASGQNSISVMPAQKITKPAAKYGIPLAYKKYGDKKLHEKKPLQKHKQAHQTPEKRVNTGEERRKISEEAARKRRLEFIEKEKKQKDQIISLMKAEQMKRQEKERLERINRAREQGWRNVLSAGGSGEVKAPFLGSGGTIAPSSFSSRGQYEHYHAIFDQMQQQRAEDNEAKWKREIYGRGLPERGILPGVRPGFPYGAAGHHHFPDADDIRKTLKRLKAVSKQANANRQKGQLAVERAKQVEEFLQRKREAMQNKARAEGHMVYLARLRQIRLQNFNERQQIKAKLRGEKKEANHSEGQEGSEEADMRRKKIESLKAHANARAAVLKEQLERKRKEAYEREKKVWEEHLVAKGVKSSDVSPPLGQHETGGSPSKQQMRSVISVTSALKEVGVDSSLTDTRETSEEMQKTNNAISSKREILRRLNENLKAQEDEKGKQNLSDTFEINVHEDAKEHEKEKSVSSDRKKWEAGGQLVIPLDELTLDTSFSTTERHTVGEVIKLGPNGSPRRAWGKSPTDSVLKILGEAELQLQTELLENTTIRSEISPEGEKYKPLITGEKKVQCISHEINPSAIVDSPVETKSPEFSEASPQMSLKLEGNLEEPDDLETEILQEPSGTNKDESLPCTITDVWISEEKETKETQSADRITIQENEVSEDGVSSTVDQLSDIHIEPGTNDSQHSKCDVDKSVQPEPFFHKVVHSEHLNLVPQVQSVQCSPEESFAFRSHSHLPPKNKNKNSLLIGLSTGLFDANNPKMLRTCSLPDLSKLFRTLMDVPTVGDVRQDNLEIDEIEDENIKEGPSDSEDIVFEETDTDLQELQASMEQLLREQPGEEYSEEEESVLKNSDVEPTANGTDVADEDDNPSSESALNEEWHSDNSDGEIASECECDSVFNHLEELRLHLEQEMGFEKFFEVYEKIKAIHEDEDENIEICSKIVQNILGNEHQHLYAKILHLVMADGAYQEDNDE"}
{"SMILES": "CO[C@H]1C[C@@H]2CC[C@@H](C)[C@@](O)(O2)C(=O)C(=O)N2CCCC[C@H]2C(=O)O[C@H]([C@H](C)C[C@@H]2CC[C@@H](OC(=O)NCCOCCOCCOCCOCCOCCOCCOCCOCCC(=O)N3CCc4cc(Cn5nc(-c6ccc7oc(N)nc7c6)c6c(N)ncnc65)ccc4C3)[C@H](OC)C2)C[C@@H](O)[C@H](C)/C=C(\\C)[C@@H](O)[C@@H](OC)C(=O)[C@H](C)C[C@H](C)/C=C/C=C/C=C/1C", "test": "dose-escalation trial", "system": "patients with advanced solid tumours", "setting": "intravenous, 1.6 mg/3 mg weekly, grade ≥3", "quantity": "AEs leading to discontinuation", "result": "0%"}
{"SMILES": "COc1cccc2c1C(=O)c1c(O)c3c(c(O)c1C2=O)C[C@@](O)(C(=O)CO)C[C@@H]3O[C@H]1C[C@H](N)[C@H](O)[C@H](C)O1", "target or system": "prp N63Q", "test": "enzyme activity, inhibitor", "setting": "10 µM, prp 21.4 nM, together with: FITC peptide substrate 0.5 µM", "quantity": "inhibition", "result": "1.2 ± 9.2%"}
{"SMILES": "COc1ccc(N2C(=O)N(c3c(C)cccc3Cl)Cc3cnc(Nc4ccc(C5CCN(C)CC5)cc4OC)nc32)nc1", "target or system": "NEK1 (Homo sapiens, UniProt Q96PY6)", "test": "kinase activity", "setting": "0.5 µM", "quantity": "inhibition", "result": "5.55%"}
{"SMILES": "CN(C(=O)n1cnc(-c2ccc[n+]([O-])c2)c1)C1CCCCC1", "target or system": "AMPA receptor, rat", "test": "binding", "setting": "50 µM, together with: [3H]AMPA", "quantity": "inhibition", "result": "6%"}
{"SMILES": "CC[C@H](C)[C@@H]1NC(=O)[C@@H]2CCCN2C(=O)[C@H](CC(C)C)NC(=O)[C@H](CC(C)C)NC(=O)CNC(=O)[C@@H](NC(=O)[C@@H](NC(=O)[C@H](CC(=O)O)NC(=O)CNC(=O)[C@@H](NC(=O)[C@H](C)NC(=O)CNC(=O)[C@H](CCCCN)NC(=O)[C@H](CC(C)C)NC(=O)[C@H](CC(C)C)NC(=O)[C@H](CCCCN)NC(=O)CNC(=O)[C@@H](NC(=O)[C@@H](N)CC(C)C)C(C)C)C(C)C)C(C)C)CSSC[C@@H](C(=O)O)NC1=O", "test": "RNA-seq, refers to: Cd274", "system": "mouse, traumatic brain injury model, frontal cortex and hippocampus", "setting": "dose not given", "how to read": "reference: TBI alone", "quantity": "log2 fold change", "result": -2.68}
{"SMILES": "O=C(Nc1cnccc1Cl)N1CCN(Cc2ccc3c(c2)OC(F)(F)O3)CC1", "target or system": "DMPK (Homo sapiens, UniProt Q09013)", "test": "kinase activity, inhibitor", "setting": "50 µM, together with: Axltide substrate", "quantity": "inhibition", "result": "-12%"}
{"SMILES": "N[C@H]1C(O)O[C@H](CO)[C@@H](O)[C@@H]1O (stereo partly drawn)", "target or system": "prp N63Q", "test": "enzyme activity, inhibitor", "setting": "10 µM, prp 21.4 nM, together with: FITC peptide substrate 0.5 µM", "quantity": "inhibition", "result": "-3.5 ± 14%"}
{"SMILES": "COc1cc2c(Oc3ccc4[nH]c(C)cc4c3F)ccnc2cc1OCC1(N)CC1", "system": "paediatric recurrent refractory sarcoma", "setting": "8 mg", "quantity": "grade 1 or 2 Hypothyroidism", "result": "25%"}
{"SMILES": "CN1CCN(c2cc(-c3ccncc3)c(-c3ccc4ccccc4c3)nn2)CC1", "target or system": "CMKLR1 (Homo sapiens, UniProt Q99788)", "test": "antagonist, FLIPR", "setting": "10 µM", "quantity": "inhibition", "result": "26.4%"}
{"SMILES": "COc1c(-c2ccc3cc(NS(C)(=O)=O)ccc3c2)cc(-n2ccc(=O)[nH]c2=O)cc1C(C)(C)C", "target or system": "prp N63Q", "test": "enzyme activity, inhibitor", "setting": "10 µM, prp 21.4 nM, together with: FITC peptide substrate 0.5 µM", "quantity": "inhibition", "result": "-45.3 ± 16.8%"}
{"SMILES": "COc1cc(Nc2ncc(F)c(Nc3ccc4c(n3)NC(=O)C(C)(C)O4)n2)cc(OC)c1OC", "target or system": "MUSK (Homo sapiens, UniProt O15146)", "test": "KINOMEscan", "setting": "10 µM", "quantity": "inhibition", "result": "99%"}
{"SMILES": "CC[C@H](C)[C@H](NC(=O)[C@@H](N)CCCCN)C(=O)N[C@@H](Cc1ccccc1)C(=O)N1CCC[C@H]1C(=O)N[C@H](C(=O)N1CCC[C@H]1C(=O)N[C@@H](CC(C)C)C(=O)N[C@@H](CCCCN)C(=O)N[C@@H](Cc1ccccc1)C(=O)O)C(C)C", "target or system": "HLA class I histocompatibility antigen, A alpha chain, allele A*02:01 (Homo sapiens, UniProt P04439)", "test": "binding", "quantity": "IC50", "result": "4.23 µM"}
{"SMILES": "CC(=O)NC[C@H]1[C@H](O)[C@H](O)[C@@H]2[C@H](O)C[C@@H](CO)N21", "target or system": "β-N-acetylglucosaminidase", "test": "enzyme activity, inhibitor, colorimetric", "system": "Canavalia ensiformis", "setting": "0.161 nM, together with: p-nitrophenyl GlcNAc substrate", "quantity": "inhibition", "result": "18.5% and 18.7%"}
{"SMILES": "O=C(Nc1cccnn1)N1CCC(=Cc2cccc(Oc3ccc(C(F)(F)F)cn3)c2)CC1", "target or system": "muscarinic receptor, rat", "test": "binding", "setting": "10 µM, together with: [3H]oxotremorine M", "quantity": "inhibition", "result": "3%"}
{"SMILES": "CSCC[C@H](NC(=O)[C@@H](N)Cc1ccc(O)cc1)C(=O)N[C@@H](Cc1ccc(O)cc1)C(=O)N[C@H](C(=O)N[C@@H](CCCCN)C(=O)N[C@@H](Cc1ccccc1)C(=O)N[C@@H](Cc1c[nH]cn1)C(=O)N[C@H](C(=O)N[C@@H](Cc1ccc(O)cc1)C(=O)O)[C@@H](C)O)[C@@H](C)O", "target or system": "HLA class I histocompatibility antigen, A alpha chain, allele A*01:01 (Homo sapiens, UniProt P04439)", "test": "binding", "quantity": "IC50", "result": "6.74 µM"}
{"note": "Some of these lines once more:"}
{"SMILES": "COc1ccc(N2C(=O)N(c3c(C)cccc3Cl)Cc3cnc(Nc4ccc(C5CCN(C)CC5)cc4OC)nc32)nc1", "target or system": "NEK1 (Homo sapiens, UniProt Q96PY6)", "test": "kinase activity", "setting": "0.5 µM", "quantity": "inhibition", "result": "5.55%"}
{"SMILES": "CN(C(=O)n1cnc(-c2ccc[n+]([O-])c2)c1)C1CCCCC1", "target or system": "AMPA receptor, rat", "test": "binding", "setting": "50 µM, together with: [3H]AMPA", "quantity": "inhibition", "result": "6%"}
